Experimental data collected from several papers.
Parts stem from different laboratories: compare values within a part only.
Sequence of UniProt Q15303 (whole entry, looked up): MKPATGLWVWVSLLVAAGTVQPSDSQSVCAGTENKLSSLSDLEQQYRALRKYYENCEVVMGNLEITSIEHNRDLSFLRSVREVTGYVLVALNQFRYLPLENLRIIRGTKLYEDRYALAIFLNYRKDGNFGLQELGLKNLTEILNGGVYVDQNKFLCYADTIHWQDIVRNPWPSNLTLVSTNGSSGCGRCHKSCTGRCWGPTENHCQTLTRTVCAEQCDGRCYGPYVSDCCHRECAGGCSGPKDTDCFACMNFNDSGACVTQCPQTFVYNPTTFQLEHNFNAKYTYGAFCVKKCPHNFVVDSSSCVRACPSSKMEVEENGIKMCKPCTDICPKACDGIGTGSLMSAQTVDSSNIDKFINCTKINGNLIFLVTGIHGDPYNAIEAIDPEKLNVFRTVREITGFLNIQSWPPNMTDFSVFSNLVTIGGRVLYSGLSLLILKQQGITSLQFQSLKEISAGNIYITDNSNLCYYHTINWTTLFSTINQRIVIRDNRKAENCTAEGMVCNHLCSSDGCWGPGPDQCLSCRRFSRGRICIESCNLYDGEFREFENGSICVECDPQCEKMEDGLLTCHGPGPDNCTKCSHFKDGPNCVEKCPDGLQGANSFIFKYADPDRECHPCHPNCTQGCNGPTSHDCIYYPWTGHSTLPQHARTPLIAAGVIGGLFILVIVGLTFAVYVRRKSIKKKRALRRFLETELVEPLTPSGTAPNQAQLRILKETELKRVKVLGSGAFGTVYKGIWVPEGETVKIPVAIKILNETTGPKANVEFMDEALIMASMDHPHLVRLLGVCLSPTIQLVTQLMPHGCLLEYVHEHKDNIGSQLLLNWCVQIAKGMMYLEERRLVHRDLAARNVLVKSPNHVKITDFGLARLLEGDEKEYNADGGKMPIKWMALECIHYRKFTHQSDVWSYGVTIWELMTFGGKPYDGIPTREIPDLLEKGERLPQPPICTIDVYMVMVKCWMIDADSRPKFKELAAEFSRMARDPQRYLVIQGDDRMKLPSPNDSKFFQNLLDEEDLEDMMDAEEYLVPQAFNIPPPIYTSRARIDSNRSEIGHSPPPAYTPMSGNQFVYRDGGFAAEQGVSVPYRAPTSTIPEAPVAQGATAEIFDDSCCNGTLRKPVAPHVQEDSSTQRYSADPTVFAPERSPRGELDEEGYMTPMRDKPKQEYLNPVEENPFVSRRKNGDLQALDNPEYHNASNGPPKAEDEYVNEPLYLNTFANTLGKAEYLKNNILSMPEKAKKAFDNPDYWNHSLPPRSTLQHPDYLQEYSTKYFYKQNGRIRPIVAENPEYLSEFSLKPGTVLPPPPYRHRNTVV

Set 1
Target: TAR DNA-binding protein 43, full length, His tag (TARDBP, Homo sapiens, UniProt Q13148, residues 1-414)
Technique: RNA Bind-n-Seq
Molecule type: RNA
Sample: in vitro
Tested at: 20 nM
Notes: 6-mer, flanks averaged, single round
Added: 150 mM KCl
Reference: input library
Reading: higher = stronger binding
Measurement: 6-mer enrichment (R)
Oligonucleotide = GUCGCG; result = 1.53
Oligonucleotide = AAUCAU; result = 0.588
Oligonucleotide = CGUAUU; result = 0.597
Oligonucleotide = UUUAUU; result = 0.69
Oligonucleotide = ACUCAG; result = 0.666
Oligonucleotide = CCAAAA; result = 0.645
Oligonucleotide = CUGCUA; result = 0.617
Oligonucleotide = CGACUG; result = 0.896

Set 2
Target: RING finger protein unkempt homolog, zinc fingers 1-6, GST-SBP tag (UNK, Homo sapiens, UniProt Q9C0B0, residues 30-357)
Sequence of UniProt Q9C0B0 (30-357, looked up): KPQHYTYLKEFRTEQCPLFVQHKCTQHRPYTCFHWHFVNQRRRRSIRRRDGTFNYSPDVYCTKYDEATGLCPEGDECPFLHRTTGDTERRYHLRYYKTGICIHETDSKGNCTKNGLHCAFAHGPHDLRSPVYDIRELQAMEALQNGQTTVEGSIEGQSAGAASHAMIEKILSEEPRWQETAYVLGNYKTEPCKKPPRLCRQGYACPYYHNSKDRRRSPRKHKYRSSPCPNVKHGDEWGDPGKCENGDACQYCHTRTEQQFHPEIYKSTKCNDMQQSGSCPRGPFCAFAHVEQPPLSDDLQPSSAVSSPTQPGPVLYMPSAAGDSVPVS
Technique: RNA Bind-n-Seq
Molecule type: RNA
Sample: in vitro
Tested at: not given
Notes: RNA with constant flanks, human-mouse chimeric sites, ends assumed
Reference: input RNA pool
Reading: higher = stronger binding
Measurement: bound/input enrichment
Constant ends, left off below: GGGAGUUCUACAGUCCGACGAUC … CAACAGAGGAUUGAGCAUCA
Oligonucleotide = CUCAGAGAUGUGGCAUAUCAGUAUGUGAAAAAGGGGGCUCGAAUUUAUGUGGAAGGGAAAGUGGACUAUGGCGAGUACAUGGAUAAAAAUAAUGUGAGGCGGCAAGCAACAACAAUCAUA; result = 0.373 ratio
Oligonucleotide = GAAACAUUUAAAUUUAAAGAAGCUGUUGUUCUAGGAAGUACGGACUUCCUAGAAGAUGAUAUAGAGAAAAUUGUAGAAGAACUGGGGAAAGAGUAUAAGGGCAACGCUUAUCAUUUAAUG; result = 1.69 ratio
Oligonucleotide = GAUCUCGGGCCCUCCCCAGGGGCCUCCUUUCGUAUAGUCACUGCUUCUGCAUCAGAUACUUUCAGCUCCAAGUCCUGACUGGGUGGGGCACCCAUUUCAGGCAGAAGGUUUUGGUACCCU; result = 0.222 ratio
Oligonucleotide = GUUCGGCUCUGGGAUCAUGCCACAAUGACAGAAGUGAAAUCUCUAAAUUUUAAUAUGUCUGUUAGCAGCAUGGAGUAUAUUCCUGAAGGAGAGAUUUUGGUUAUUACUUAUGGACGAUCU; result = 0.356 ratio
Oligonucleotide = CAGCGCCGAGGCCGCGGUUUCCCCCUGGGCCUCCCCAGCAGCAGCCAUGGGCAUCAAGUUUUUAGAAGUUAUCAAACCAUUCUGUGCAGUUCUACCAGAAAUUCAGAAGCCUGAAAGGAA; result = 1.04 ratio
Oligonucleotide = CUCAGAGACGUGGCAUAUCAGUAUGUGAAAAAGGGGGCUCGUAUAUUUGUGGAAGGGAAAGUGGACUAUGGUGAAUACAUGGAUAAAAACAAUGUGAGGCGGCAAGCAACAACAAUCAUA; result = 0.336 ratio
Oligonucleotide = CGGAGCCCUCCUCUCCCACAGGCCCAAGAUAUAACCCACCAGUGCCUUCUGUCUGCUUGUCAGCUCUGUCAAUCACGCCUGUCCUCUCACGCCCACACCAAGUGCCCAAAGUGGGGAGGG; result = 0.491 ratio
Oligonucleotide = AACUUUGUGCAUCGGUUUCCCUUUGUAGCUGUUUCAAUUGGCUUCCUUGUGAAUAAAGAGAUGGAGUUUGGAAUUGUGUACAGCUGUGUGGAAGAUAAGAUGUACACUGCCAGAAAAGGG; result = 0.319 ratio

Single results of other studies
Substance = CN([C@@H]1CCc2c(CC(=O)O)c3cc(S(C)(=O)=O)ccc3n2C1)S(=O)(=O)c1ccc(F)cc1; target = ERBB4 (Homo sapiens, UniProt Q15303); test = cell-free assay, competition with immobilised ligand; conditions = 1 µM; measurement = remaining binding; result = 100%
Substance = PhoQ, residues 284 288 289 292 302 303 SSCCRF; target = PhoP, residues 12 14 15 18 19 LHHSG (Escherichia coli, UniProt P23836); test = Sort-seq, measured: YFP reporter; test system = E. coli; conditions = PhoQ-PhoP variant library, added: 10 µM Mg2+; scale = reference: high Mg2+ state, higher = stronger signaling; measurement = fold induction; result = 4.78
